Assay results pooled from the literature.
Each numbered part is a random draw from the data of one study; scales do not carry over between parts.

Block 1
Target: Interferon regulatory factor 3, full length, phosphomimetic (IRF3, Homo sapiens, UniProt Q14653, residues 1-427, S386D/S396D/S398D/S402D/T404D/S405D)
Technique: protein-binding microarray
Form: double-stranded DNA, one strand shown
Matrix: in vitro
Tested at: 2540 nM top
Notes: 60-bp whole probe
With: salmon DNA 0.4 mg/ml
Baseline: random background probes
Reading: higher = stronger binding
Measurement: fitted relative affinity
Shared flanks, not repeated: GCCTAGCAC … GTCTTGATTCGCTTGACGCTGCTG
Target sequence (chain): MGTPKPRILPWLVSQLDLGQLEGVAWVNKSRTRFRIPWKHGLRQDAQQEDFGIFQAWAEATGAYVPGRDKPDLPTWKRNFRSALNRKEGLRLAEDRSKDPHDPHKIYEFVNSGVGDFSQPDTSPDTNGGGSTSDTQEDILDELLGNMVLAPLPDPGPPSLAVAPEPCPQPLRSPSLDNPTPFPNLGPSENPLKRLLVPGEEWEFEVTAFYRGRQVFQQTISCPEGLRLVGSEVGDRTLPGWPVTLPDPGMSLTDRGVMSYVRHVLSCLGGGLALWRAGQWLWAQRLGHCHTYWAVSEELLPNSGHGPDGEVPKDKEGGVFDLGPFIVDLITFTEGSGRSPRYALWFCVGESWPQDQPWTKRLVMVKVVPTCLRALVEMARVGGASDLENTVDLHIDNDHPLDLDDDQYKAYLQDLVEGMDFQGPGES
GACGGACTGAGTATCGGGACGTGCTAG: 0.00462 z-score
TTAGGTATCCTGCTCCTTTAGTGCTAG: 1.54 z-score
TTAGGTTTCGGTTCCGATTAGTGCTAG: 11 z-score
GACGGTACCGGGTATCGGGACGTGCTA: 0.382 z-score
GACGGCTTCGGACTGGGGACGTGCTAG: -0.726 z-score
GACGGTATCGGGGCTGGGGACGTGCTA: 0.611 z-score
TTAGGTATCGGGACCGGGTTAGTGCTA: 1.07 z-score
ACCCTGCCTAAAGCTAGTTTGTGCTAG: 0.04 z-score
TCATGATTACATATATGACTGTGCTAG: 0.453 z-score
TTAGGTCTCGGTATCGGTCAGTGCTAG: 1.88 z-score
TCACATCTGCAACATCTAACTGTGCTA: 0.601 z-score
TCATTATCCTATATCTGACTGTGCTAG: 2.78 z-score
TTGTAGATGCCTTTCTCTTGGTGCTAG: 3.54 z-score
TTAGATCTCAGACGGGATTAGTGCTAG: -0.216 z-score
TTAGAACTGGGTTATCGATTAGTGCTA: -0.392 z-score
ACTAGCTTCCATTTTCTGAAGTGCTAG: 2.49 z-score
TCAATACTGATTTCCACACTGTGCTAG: 0.941 z-score

Block 2
Target: RING finger protein unkempt homolog, zinc fingers 1-6, GST-SBP tag (UNK, Homo sapiens, UniProt Q9C0B0, residues 30-357)
Technique: RNA Bind-n-Seq
Form: RNA
Matrix: in vitro
Tested at: not given
Notes: RNA with constant flanks, human and mouse sites, ends assumed
Baseline: input RNA pool
Reading: higher = stronger binding
Measurement: bound/input enrichment
Shared flanks, not repeated: GGGAGUUCUACAGUCCGACGAUC … CAACAGAGGAUUGAGCAUCA
Target sequence (chain): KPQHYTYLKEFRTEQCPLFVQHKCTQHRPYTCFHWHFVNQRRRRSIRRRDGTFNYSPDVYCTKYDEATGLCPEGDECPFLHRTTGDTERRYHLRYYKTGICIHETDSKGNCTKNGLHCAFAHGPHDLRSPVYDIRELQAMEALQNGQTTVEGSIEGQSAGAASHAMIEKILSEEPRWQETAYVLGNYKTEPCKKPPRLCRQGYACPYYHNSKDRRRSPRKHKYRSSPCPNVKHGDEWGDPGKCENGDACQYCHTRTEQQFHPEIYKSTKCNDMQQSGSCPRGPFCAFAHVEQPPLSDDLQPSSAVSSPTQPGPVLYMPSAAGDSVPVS
CGGGACGGGCGGCGCCCAUCCUGCGACAGAACACGUUCGGGUUUUGGUUUUGUUUCGUUCACCUCUGUCUAGAUGCAACUUUUGUUCCUCCUCCCCCACCCCCGCCCCCAGCUUCAUGCU: 0.783 ratio
UCAGCGUUUGACAAUCCAACUUACGAGACUGGAGAGACGAGAGAAUAUGAAGUCUCCAUCUAGGUGGGGGCAGUCUAGGGAAGUCAACUCAGACUUGCACCACAGUCCAGCAGCAAGGCU: 0.17 ratio
AUGCAGUGGCUUGGGAAACAUGUGGACUCCGAGGGAGAAAUAAAAUCCGGCCAGCUCUCUCUUAGAUUUGUUUCAUCCUACGUGUCUGAAGUAGAAAUAACCCCAUCUUGUAUACCUGUG: 1.42 ratio
CAACAGGACAUUGAGCAAGUUUGGGAGGAGCUAUUAUCCAUUCCUGAGUUACAGUGUCUUAAUAUUGAAAAUGACAAGCUGGUUGAGACUACCAUGGUUCCAAGUCCAGAAGCCAAACUG: 0.2 ratio
GUCUUUCAGCUUAAAGACCGUGGUCUGACCGAGUUCCCCUCAGAGUUGCAGAAGCUGACAAGCAAUCUUAGGACCAUCGAUUUAUCCAACAACAAGAUUGACAGCCUACCGCCUCUGAUA: 0.0734 ratio
GGUUGUCUGGUUUUGUUGUUUUUACAGGUGUUGUGGAAUAAAAACUGUAAGAAAAUUAAGUAUUUAAAAUGUUCCAAUAAAGUGGGGUUUUUUGUUAUUCUAAUAUAUUAUUGUGUACCU: 1.74 ratio
UAUGCUUCUUUUUUAUCCAUGUAAUGUGUUGCCUUUUUUAAAAGAACAAAUACUACAAUAACGUGUGAAGUGGUCAAUCCCUAAGACAUCAAAGAAAGGCCACAUAACCCUACCCUUCUA: 0.301 ratio
GCUAGCAGGCCCACACCAGACGAGCUGGAGGCCGUGCGCAAGUACUUCCAGCUAGAUGUUACCCUGGCUCAACUGUAUCACCACUGGGGUUCCGUGGACUCCCACUUCCAAGAGGUGGCU: 0.947 ratio
UGCACUCUUUCAGCCUCAGCAGCACCCAGCACGUGACCAACAUGAUACUUUCUUCCUGCGAGGUUGGUAGCCCGGGAGCCUGGCCAAUGUGGUAGCAGAAGUCUCAAGUCUGGAUAAAGC: 0.189 ratio
UCUUUCUAGUGUCAGCCUUCAGGGUGAUCUAGGAAAGAAUAACACUUCGGAAUGUGGCUUAUACUUUUAGAGAUUUAGAAAGAAAAUAUGUUACUAAGGCUUACAAUCAGAUUUUGUAUU: 131 ratio
GUUGCUGUGAACUCAGGAGGAAAGCAUUGCCUUGCUCUCUCUUCAGAAGGCGAAGUUUACUCUUGGGGCGAGGCAGAAGAUGGGAAGUUGGGACAUGGCAACAGAAGUCCAUGUGACCGC: 0.126 ratio

Block 3
Target: Ras GTPase-activating protein-binding protein 1, full length (G3BP1, Homo sapiens, UniProt Q13283)
Sequence of UniProt Q13283 (whole entry, looked up): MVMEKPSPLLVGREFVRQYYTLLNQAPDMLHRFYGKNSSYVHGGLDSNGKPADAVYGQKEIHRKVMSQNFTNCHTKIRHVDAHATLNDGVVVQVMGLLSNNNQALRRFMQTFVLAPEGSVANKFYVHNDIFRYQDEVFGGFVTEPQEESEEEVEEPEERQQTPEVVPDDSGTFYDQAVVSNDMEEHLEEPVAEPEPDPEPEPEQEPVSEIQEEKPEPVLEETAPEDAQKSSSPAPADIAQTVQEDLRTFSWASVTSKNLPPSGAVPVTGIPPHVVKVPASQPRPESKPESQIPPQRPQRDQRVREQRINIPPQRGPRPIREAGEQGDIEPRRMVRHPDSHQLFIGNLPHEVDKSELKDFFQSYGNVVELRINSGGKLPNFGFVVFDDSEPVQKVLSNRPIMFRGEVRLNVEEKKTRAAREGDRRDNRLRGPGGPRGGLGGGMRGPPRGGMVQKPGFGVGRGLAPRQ
Technique: RNA Bind-n-Seq
Form: RNA
Matrix: in vitro
Tested at: 200 nM
Notes: whole 134-nt RNA, ends assumed
With: 150 mM LiCl
Baseline: input library
Reading: higher = stronger binding
Measurement: log2 enrichment
All molecules: 7-deaza-guanosine replaces G
Shared flanks, not repeated: GGGAGUUCUACAGUCCGACGAUC … UGGAAUUCUCGGGUGUCAAGG
GUCCUGUGCUACACAUCGUAUGUACCGAAUCGGGGAAAAAGGGAAAAAGGGGAAAAAGGAAAGUAUUAUGUUACGCCGUUCGGAUCUGCA: -0.0403
UUCCCCACUUCCUUCCCUCCAGUCCCCACUCACUCACAUGCACACACUAACCUUGGAGCCGAUGGGAUUGAGUGACUGGCACUUGGGACC: 0.765
CACAGACAACACGCACCAACACAGACACAGAGGGAAGGGGUUGGGAUGGGGACAGGGUGCACAGCAGGGCGGGGUAGGACCCCAGCCCCU: 0.166
CAAGUCCUGUGCUACACAUCGUAUGUACCGAAUCGGUUUUUUUGGUUUGGUUUGGAAAGUAUUAUGUUACGCCGUUCGGAUCUGCACUUC: -1.46
UGGGAGGUGGAUUUUGUUUAUUUUUUUAGCUCAUAUCCAGGGGUGGGAAUUUUUUUUUAAUAUGUGUCAUGAAUAAAGUUGUUUUUGAAA: 0.236
UGUCAGGAUUAUGAAGAAGCUGUGCUCUUGCUGUUAGAAGGAGCUGCCUGGGAAGAAGCUUUGAGGCUGGUAAGAAUCUUGUAAAUCCUC: -1.03
CACAGACAACACGCACCCACGCAGACACAGAGGGAAGGGGUUGGGAUGGGGACAGGGUGCACAGCAGGGCGGGGUAGGACCCCAGCCCCU: 0.353
UUUUUGAAUCAAUUUUUAAAACAUGCCAUUGUGUUUCAGGCUCGCGGGAUUGAUGUGCAACAAGUGUCUUUGGUUAUAAAUUAUGAUCUA: -0.915
UGGGAGGUGGAUUUUGUUUAUUUUUUUAGCUCAUUUCCAGGGGUGGGAAUUUUUGUUUAAUAUGUGUCAUGAAUAAAGUUGUUUUUGAAA: -0.67
ACCAUGCAGGUGGGCAUCUUUGGGAAGUGGGGCAAGGGGGGGAUAGGGAGGGGAGUAACACUUUGGGAACAGGUGGUCCCAGGUCGUUUC: 0.111
UGAAAAUUCUCGACUGGCUGCUGAGGUUUACAAAGACAUGCCGGAAACCAGCUUUACUCGAACCAUUUCUAAUCCUGAGGUGGUUAUGAA: -2.13

Block 4
Target: RNA binding protein fox-1 homolog 2, RRM domain, GST-SBP tag (RBFOX2, Homo sapiens, UniProt O43251-10, residues 100-194)
Technique: RNA Bind-n-Seq
Form: RNA
Matrix: in vitro
Tested at: 365 nM
Notes: natural RNA segment, single round, ends assumed
Baseline: no-protein control
Reading: higher = stronger binding
Measurement: RBNS enrichment (R)
Shared flanks, not repeated: GGGAGUUCUACAGUCCGACGAUC … UGGAAUUCUCGGGUGCCAA
Construct (chain): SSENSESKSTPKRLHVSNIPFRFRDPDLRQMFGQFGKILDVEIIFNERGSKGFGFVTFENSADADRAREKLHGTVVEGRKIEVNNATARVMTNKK
CCCCUUGUUGGACACACUGCCUUUCUCCUCCUCCUUUGCCGCUGGCAAGAGCCAGUGCCUGACUGAGGCCUUCCUGUGUUGUGGCCUUCCCCCUCCAUCACCCCCAAGAC: 0.589
GCAGAGCUUGCAUUGGGUUUACCUCGGUCUCAUUCAUUCAUGGAGCCAAGGGUGGGGUUUCACCUGCGAACAUCAGACUGACUUGCUGGCGUCAAGAGCAGUUGACUCAC: 0.565
AAGCCUACGUAAGCAAACGACUACAGCUCCUUCCCCCCAGGACUUGCACUUGCACUAGAGCAGCCGGUGCCCAUGCAGAGUGAACGUGGCUGAAUUAACUUUUCCAACAA: 1.59
GAUGAUGAAAACUAAGGAUUUUUCAAGAGAUCUUUCUUUCCAAAACAUUUCUGGACAGUACCUGAUUGUAUUUUUUUUUUAAAUAAAAGCACAAGUACUUUUGAGUUUGU: 0.478
CCUGCCAAGGUUCUCAAAGCACUUAUCCUCAGGAUAGGGAAAUAGCAGGGACGCCUUGUCCCCAAGACUUCUCCCCAACUUGGCUCCAUUCCUGCAUUCUGCCAUAGGAA: 0.951
GGGCGGUGGUGGCUCACGCCUUUAAUCCCAGCACUCGGGAGGCAGAGGCAGGUGGAUUUCUAAGUUCGAGGCCAGCCUGGUCUACAGAGUGAGUUCCAGGACAGCCAGGG: 0.244
UGAUGUAUGAACACAAAACCCAAUAAAAAUCUUUGAAUAGGAGCCUGGAAGCUCAAGAAGAAAAUGAUCUGGCUUUGCAUUAAGUCACCUUUGUCACCUUCUCUGCCUCC: 0.594
GCAUUUUGUACUUAGCUGUACUGUGUGAUAUUUUUCAUUAUUUUAGGACGCCAACAUGAGACCUGUAAUAAAAUAUGUAAUGGGGUUGAAAGCUGGGGAGGAGGAUCUAC: 0.563
AAAGGGUGUACUUAUAUCCACACUGCACACUGCCUGGCCCAAAACGUCUUAUUGUGGUAGGAUCAGCCCUCAUUUUGUUGCUUUUGUGAACUUUUUGUAGGGGACGAGAA: 0.732
AGAGACUUCUAGGAAUCUUUUUCUUCUCAUAGCGAAGUCAAAGCUCUCUCUGAAUGUACUGUGUGAUGAUGCAUCAUGCAUGAACCUUCGGUCAGGGAUAUCAUUGGUGA: 0.317
UGACAGCAUCUUCCCCAGGCAGCGGCUCUGUGGAGGAGGCCAUACUCCCCUAGUUGGCCACUGGGGCCACCACCCUGACCACCACUGUGCCCCUCAUUGUUACUGCCUUG: 0.463
AUAAGACUUUAACUGCAGUUCCAAAGCUUCUCUAACCCAAAAAUUACAGUACCAAAUGAUUGACUCAGGAUUGUUUUUCCCAUAUUGAUAUGCUGGCAAUAUAGGAUGGU: 0.603

Some of these lines once more (block 3):
CACAGACAACACGCACCAACACAGACACAGAGGGAAGGGGUUGGGAUGGGGACAGGGUGCACAGCAGGGCGGGGUAGGACCCCAGCCCCU: 0.166
CACAGACAACACGCACCCACGCAGACACAGAGGGAAGGGGUUGGGAUGGGGACAGGGUGCACAGCAGGGCGGGGUAGGACCCCAGCCCCU: 0.353
CAAGUCCUGUGCUACACAUCGUAUGUACCGAAUCGGUUUUUUUGGUUUGGUUUGGAAAGUAUUAUGUUACGCCGUUCGGAUCUGCACUUC: -1.46
UUCCCCACUUCCUUCCCUCCAGUCCCCACUCACUCACAUGCACACACUAACCUUGGAGCCGAUGGGAUUGAGUGACUGGCACUUGGGACC: 0.765
UGAAAAUUCUCGACUGGCUGCUGAGGUUUACAAAGACAUGCCGGAAACCAGCUUUACUCGAACCAUUUCUAAUCCUGAGGUGGUUAUGAA: -2.13
ACCAUGCAGGUGGGCAUCUUUGGGAAGUGGGGCAAGGGGGGGAUAGGGAGGGGAGUAACACUUUGGGAACAGGUGGUCCCAGGUCGUUUC: 0.111
UGGGAGGUGGAUUUUGUUUAUUUUUUUAGCUCAUUUCCAGGGGUGGGAAUUUUUGUUUAAUAUGUGUCAUGAAUAAAGUUGUUUUUGAAA: -0.67
UGGGAGGUGGAUUUUGUUUAUUUUUUUAGCUCAUAUCCAGGGGUGGGAAUUUUUUUUUAAUAUGUGUCAUGAAUAAAGUUGUUUUUGAAA: 0.236
